Experimental data collected from several papers.
Numbered parts are unrelated; each lists some results of a single study. Positions count from the first letter of the parent shown.

Series 1 — method: protein binding microarray; molecule type: double-stranded DNA, one strand shown; matrix: in vitro; tested at: not given; reference: not given; reading: higher = stronger binding
Target: Histone acetyltransferase KAT6A, winged helix 1, GST fusion (KAT6A, Homo sapiens, UniProt Q92794, residues 1-85)
Setting: 8-mer, flanks averaged, mean of 2 arrays, mostly near background
Residues (chain): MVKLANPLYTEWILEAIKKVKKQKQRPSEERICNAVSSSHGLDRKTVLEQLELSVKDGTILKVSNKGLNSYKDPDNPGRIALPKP
Strand	E-score
ACTTTGGG	-0.207
CGTCGTGA	0.128
CCCTAAAC	-0.0948
ATCGGCAC	0.246
CGTGTCTC	0.0602
ACACAACA	-0.00198
ACACACGT	-0.0907
CTCATCAA	-0.168
CGGGTTGC	0.304
ACGCGATG	0.17
AAAACCGG	0.27
ATAACTCA	-0.0633
GCTGTCAC	-0.108
TCTTTCCA	-0.173
AGGCGGCC	0.352
CAGAGGAC	-0.112
CACTGATG	-0.148
AGGCCTAA	-0.194
CGTACACA	0.0194
AAGAACCT	-0.172
GGACGCGA	0.115
AACCGGTC	0.0666
AATATTCC	-0.0215
CCGCCTCA	0.323
AACTACAT	-0.138

Series 2 — method: DHFR PCA, deep sequencing; matrix: yeast; with: (+)-ABA 0.032 µM; reference: wild-type fitted maximum; reading: higher = stronger binding
Target: ABI1, truncated, D143A, DHFR fusion (Arabidopsis thaliana)
Setting: methotrexate growth selection, single substitutions
Parent: PYL1, truncated, DHFR fusion (Arabidopsis thaliana); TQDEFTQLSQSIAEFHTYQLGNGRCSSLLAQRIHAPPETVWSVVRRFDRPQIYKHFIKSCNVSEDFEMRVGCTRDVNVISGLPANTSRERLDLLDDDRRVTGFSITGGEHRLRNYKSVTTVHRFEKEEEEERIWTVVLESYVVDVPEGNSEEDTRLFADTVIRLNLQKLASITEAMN
Substitution	relative binding score
S59C	4.62%
D159I	-1.33%
N165C	4.01%
L28C	16.6%
V62F	-4.14%
V136W	-3.55%
N114P	-6.24%
F124H	-2.26%
S117W	-5.26%
D75S	18%
D65N	36.3%
L91G	0.0683%
E67Q	30.1%
S171T	36.6%
D48R	-1.19%
L94G	-2.11%
L164N	-1.52%
H16Q	3.62%
R32Y	5.13%
Q167R	21.2%
T17M	7.14%
D153F	-14.9%

Series 3 — method: protein-binding microarray; molecule type: double-stranded DNA, one strand shown; matrix: in vitro; tested at: 250 nM; setting: 60-bp whole probe; with: salmon DNA 0.4 mg/ml; reference: random background probes; reading: higher = stronger binding; shared flanks, not repeated: GCCTAGCAC … GTCTTGATTCGCTTGACGCTGCTG
Target: Interferon regulatory factor 7, full length, phosphomimetic (IRF7, Homo sapiens, UniProt Q92985, residues 1-503, S101K/S471D/S472D/S475D/S476D/S477D/S483D/S484D/S487D)
Target sequence (chain): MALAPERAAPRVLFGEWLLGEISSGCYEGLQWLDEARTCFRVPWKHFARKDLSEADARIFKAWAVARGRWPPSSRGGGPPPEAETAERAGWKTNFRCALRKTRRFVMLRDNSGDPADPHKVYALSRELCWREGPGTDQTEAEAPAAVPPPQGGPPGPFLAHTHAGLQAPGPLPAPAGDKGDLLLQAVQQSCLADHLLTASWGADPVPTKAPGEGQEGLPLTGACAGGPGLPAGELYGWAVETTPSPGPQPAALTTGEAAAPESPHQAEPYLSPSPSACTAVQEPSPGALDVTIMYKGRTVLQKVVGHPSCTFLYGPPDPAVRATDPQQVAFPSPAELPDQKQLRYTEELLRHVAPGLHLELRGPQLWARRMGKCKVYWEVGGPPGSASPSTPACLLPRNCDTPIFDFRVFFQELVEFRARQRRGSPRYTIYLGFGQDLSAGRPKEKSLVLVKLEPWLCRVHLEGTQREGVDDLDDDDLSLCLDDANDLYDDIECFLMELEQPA
Strand	log fluorescence [z-score]
TGGGGCTGTATCATCTGAAGGTGCTAG	-0.921
GACGGACTAGGACTGGGGACGTGCTAG	-0.217
TTAGGTTTCGGGACTGGGTTCGTGCTA	3.35
TCAACTAGGGCATTTAGAACTGTGCTA	-0.852
TCATTTTCGTTTTTATTATTGTGCTAG	9.52
TCATTTTTTTTTTCATCACTGTGCTAG	0.982
AACGATTTCGGGACTGGAGACGTGCTA	-0.094
GACGAACTGGGGTATCGAGTCGTGCTA	0.224
TTAGGTATCGACCCTGGGTTAGTGCTA	0.042
TCACCACTCATGCCTCTTACTGTGCTA	-0.412
GACGGACTGGGGTTTCGGGAGGTGCTA	0.233
TTTTTTTTTTTTTTTTGTATGTGCTAG	0.659
CTGAATGTCCTCCTCTCTCTGTGCTAG	0.126
TTAGATTTCAGACTGGCTTAGTGCTAG	0.0602
TCAAAACTAAGTTTATTACTGTGCTAG	-0.0586
GTTGGGGCGGGGCGGGGTGGGTGCTAG	4.13
GGCAGCCTCTGCATTCCCTCAGTGCTA	-1.37
GACGGACAGGGACTGGGGACGTGCTAG	-0.672

Series 4 — method: RNA Bind-n-Seq; molecule type: RNA; matrix: in vitro; tested at: 200 nM; setting: whole 134-nt RNA, ends assumed; with: 150 mM LiCl; reference: input library; reading: higher = stronger binding; library: 7-deaza-guanosine replaces G
Target: Ras GTPase-activating protein-binding protein 1, full length (G3BP1, Homo sapiens, UniProt Q13283)
Sequence of UniProt Q13283 (whole entry, looked up): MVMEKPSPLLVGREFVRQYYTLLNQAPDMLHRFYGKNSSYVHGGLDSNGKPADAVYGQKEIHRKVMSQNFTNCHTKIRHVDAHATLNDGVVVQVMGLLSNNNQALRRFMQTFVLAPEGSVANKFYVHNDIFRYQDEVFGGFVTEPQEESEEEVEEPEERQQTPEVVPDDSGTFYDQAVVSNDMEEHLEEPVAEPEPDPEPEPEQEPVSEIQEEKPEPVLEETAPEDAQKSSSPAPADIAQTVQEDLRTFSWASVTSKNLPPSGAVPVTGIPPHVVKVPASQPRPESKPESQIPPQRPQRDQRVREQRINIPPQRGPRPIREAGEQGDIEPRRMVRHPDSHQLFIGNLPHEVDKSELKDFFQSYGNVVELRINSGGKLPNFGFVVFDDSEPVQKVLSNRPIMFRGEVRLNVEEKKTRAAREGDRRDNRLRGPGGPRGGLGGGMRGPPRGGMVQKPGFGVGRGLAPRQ
Shared flanks, not repeated: GGGAGUUCUACAGUCCGACGAUC … UGGAAUUCUCGGGUGUCAAGG
Strand	log2 enrichment
AGUCCUGUGCUACACAUCGUAUGUACCGAAUCGGGGUUUUGGUUUUGGGGUUUUGGGGAAAGUAUUAUGUUACGCCGUUCGGAUCUGCAC	0.561
CACAGACAAAACGCACCCACACAGACACAGAGGGAAGGGGUUGGGAUGGGGACAGGGUGCACAGCAGGGCGGGGUAGGACCCCAGCCCCU	0.375
ACCAUGCAGGUGGGCAUCUUUGGGAAGUGGGGCAAGGGGGGGAUAGGGAGGGGGGUAACAAUUUGGGAACAGGUGGUCCCAGGUCGUUUC	0.0118
GUCCUGUGCUACACAUCGUAUGUACCGAAUCGGGGAAAAAGGGGAGGGGAAAAAGGGGAAAGUAUUAUGUUACGCCGUUCGGAUCUGCAC	0.25
AAGUCCUGUGCUACACAUCGUAUGUACCGAAUCGGGGAGGGGAAAGGGGUUUGGGGAAAGUAUUAUGUUACGCCGUUCGGAUCUGCACUU	-0.599
CACAGACAACACGCACCCACACAGACACAGAGGGAAGGGGUUGGGAUGGGGACAGGGUGCACAGCAGGGCGGGGUAGGACCAAAGCCCCU	-0.842
UCAAGUCCUGUGCUACACAUCGUAUGUACCGAAUCGGGGUUUGGUUUGGUUUGGGAAAGUAUUAUGUUACGCCGUUCGGAUCUGCACUUC	-0.828
UCAAGUCCUGUGCUACACAUCGUAUGUACCGAAUCGGGUUUGGGUUUGGGAGGGAAAGUAUUAUGUUACGCCGUUCGGAUCUGCACUUCC	-0.118

Repeated from above (series 3):
Strand	log fluorescence [z-score]
TTAGGTTTCGGGACTGGGTTCGTGCTA	3.35
TCAACTAGGGCATTTAGAACTGTGCTA	-0.852
TCATTTTCGTTTTTATTATTGTGCTAG	9.52
TCATTTTTTTTTTCATCACTGTGCTAG	0.982
AACGATTTCGGGACTGGAGACGTGCTA	-0.094
GACGAACTGGGGTATCGAGTCGTGCTA	0.224
TTAGGTATCGACCCTGGGTTAGTGCTA	0.042
TCACCACTCATGCCTCTTACTGTGCTA	-0.412
GACGGACTGGGGTTTCGGGAGGTGCTA	0.233
TTTTTTTTTTTTTTTTGTATGTGCTAG	0.659
CTGAATGTCCTCCTCTCTCTGTGCTAG	0.126
TTAGATTTCAGACTGGCTTAGTGCTAG	0.0602
